# Measurements collected from several papers.
# A part holds a random share of what one study measured. Substitutions count along the parent as printed.

# Study 1
# Target: ABI1, truncated, D143A, DHFR fusion (Arabidopsis thaliana)
# Technique: DHFR PCA, deep sequencing
# Matrix: yeast
# Setting: methotrexate growth selection, single substitutions
# Added: (+)-ABA 4.8 µM
# Relative to: wild-type fitted maximum
# Direction: higher = stronger binding
# Starting sequence: PYL1, truncated, DHFR fusion (Arabidopsis thaliana); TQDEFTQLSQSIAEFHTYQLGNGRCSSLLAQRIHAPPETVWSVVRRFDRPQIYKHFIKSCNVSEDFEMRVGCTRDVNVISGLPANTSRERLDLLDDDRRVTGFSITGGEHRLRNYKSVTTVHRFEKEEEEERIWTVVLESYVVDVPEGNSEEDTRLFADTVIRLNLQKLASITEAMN
Variant,relative binding score [%]
F124G,53.2
R163A,31.4
T173N,-1.25
V43P,-7.87
R113N,64.7
T1P,73.9
I52Q,67.3
A175S,77.6
L94N,9.74
I79Q,53.7

# Study 2
# Cell line: yeast with cyclin B3-Cln2 chimera
# Effect on: cell growth
# Mode: binder
# Technique: competitive growth deep sequencing
# Form: peptide
# Concentration: concentration not given
# Setting: peptide tiling library
# Direction: direction not given
Molecule,growth enrichment score
TRRRLFVENDSP,0.712
FQDSGYNELKSCSFDN,0.164
DGCSPIKNWSPMRL,0.522
QNPCGSKACRRLFGPV,-0.328
NFETPEAETPIRSPFK,0.121
PQWPCGKHKRVLIFAS,-0.507
RNRGPKLNAMLRLGVL,-2.5
VLVRTSACRSLFGPVD,0.246
TSPGPVLLHPSPSTTQ,0.623
GAEELEDLVHFSVSEL,1.16
VRDLSYRLVFLACCVA,0.0894
VLPGGVPSPGASLTSM,-0.0592
SGYLTDENEVGFRG,0.784

# Study 3
# Target: Phosphate system positive regulatory protein PHO4, full length, GST-tagged (PHO4, Saccharomyces cerevisiae, UniProt P07270, residues 1-312)
# Technique: competition protein-binding microarray
# Form: double-stranded DNA, one strand shown
# Matrix: in vitro
# Concentration: 2 µM
# Setting: whole 60-bp probe, lowest competitor level
# Added: Cbf1 competitor, 0.05 µM
# Direction: higher = stronger binding
# Target sequence (chain): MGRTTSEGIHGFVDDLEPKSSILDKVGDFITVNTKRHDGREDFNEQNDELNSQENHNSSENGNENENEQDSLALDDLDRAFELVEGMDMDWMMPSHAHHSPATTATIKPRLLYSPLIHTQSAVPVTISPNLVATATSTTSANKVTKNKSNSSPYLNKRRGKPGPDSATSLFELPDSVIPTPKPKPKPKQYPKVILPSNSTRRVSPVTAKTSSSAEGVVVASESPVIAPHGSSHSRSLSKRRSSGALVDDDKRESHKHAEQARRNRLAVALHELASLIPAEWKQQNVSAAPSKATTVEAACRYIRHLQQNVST
Sequence,fluorescence intensity
GTCTTGTCTCATTGGTATGTGGGTGTCCCCACTTCAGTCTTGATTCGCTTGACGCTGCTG,5590 a.u.
GGAGTAGACACACTACACGTGATGGCAGTAGGAGAGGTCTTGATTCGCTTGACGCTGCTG,14400 a.u.
AAAGCGGTAATTTGCAAGGTGGGTGCAGATATCTATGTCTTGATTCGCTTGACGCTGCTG,5110 a.u.
CTCAGGTAGACGGTGCTCGTGTCGGGACAATTTTAAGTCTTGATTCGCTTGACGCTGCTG,8550 a.u.
CTAACGAAGGTTTTTCACGTGGATTACAAGCCAAGTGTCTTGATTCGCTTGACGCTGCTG,14000 a.u.
CGCCGGCTGGCGCTTCCCGTGGAAGGGTGTTTGACTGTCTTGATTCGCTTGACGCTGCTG,4940 a.u.
AGTGGGCTTTCTTGTCATGCCACTCAAGTTACAAGCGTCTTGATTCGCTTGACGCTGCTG,3750 a.u.
TAGGCCGTCTTATGTAACGTGGTGAACGCTGCCTAGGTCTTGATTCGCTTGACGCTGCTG,7180 a.u.
CTAATCAGCAAGACACATGTGCCTTGCAGTAGGGCAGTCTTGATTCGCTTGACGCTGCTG,10900 a.u.
TACATTTATGGCCTGTTCGTGATGGGTCAGCGAGCCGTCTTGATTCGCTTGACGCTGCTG,4570 a.u.
CATACCCAACCTTGCCCCGTGGGTGAAGATATTTGTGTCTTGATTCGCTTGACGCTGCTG,12100 a.u.
CTTTGCACAATGCATTACGTGGGACCACATCCCTTTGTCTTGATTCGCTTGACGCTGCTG,7160 a.u.
GCGCAACAAATACCTGATGTGACGCCTACCCTTTGGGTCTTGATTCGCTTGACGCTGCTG,3240 a.u.
GAATCGCAAGATACCCACGATGAGACTGTTCAGGTTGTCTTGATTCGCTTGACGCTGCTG,8070 a.u.
AGCCACAGTTCGAGTCACGTGCGGACCATGCTGACTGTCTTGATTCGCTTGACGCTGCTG,17200 a.u.
ATCTTATTAATTCATGGAAGGCATTGAACTCAACAGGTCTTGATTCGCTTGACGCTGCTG,4430 a.u.
TATGTCCAATAGAGTCGCGTGCGATACAACTTCGTCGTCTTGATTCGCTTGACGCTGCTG,9720 a.u.
AAACAAATGGTAATCCACGTGAATAATTGAGACAAAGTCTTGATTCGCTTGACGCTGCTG,15100 a.u.
TAACAGTATATCCGACACGCACGGCAAGACCACTTAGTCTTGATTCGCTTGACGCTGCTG,7480 a.u.

# Further values, each from its own experiment
Substance,target,test,system,setting,how to read,quantity,result
"PhoQ, residues 284 288 289 292 302 303 TLMATV","PhoP, residues 12 14 15 18 19 YHFSH (Escherichia coli, UniProt P23836)","Sort-seq, measured: YFP reporter",E. coli,"PhoQ-PhoP variant library, added: 10 µM Mg2+","relative to: high Mg2+ state, higher = stronger signaling",fold induction,1.86

# A few entries again (study 3):
Sequence,fluorescence intensity
TAGGCCGTCTTATGTAACGTGGTGAACGCTGCCTAGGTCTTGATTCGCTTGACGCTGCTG,7180 a.u.
CTAATCAGCAAGACACATGTGCCTTGCAGTAGGGCAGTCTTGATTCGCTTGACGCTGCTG,10900 a.u.
TACATTTATGGCCTGTTCGTGATGGGTCAGCGAGCCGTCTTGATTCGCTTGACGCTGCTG,4570 a.u.
CATACCCAACCTTGCCCCGTGGGTGAAGATATTTGTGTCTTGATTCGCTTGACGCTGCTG,12100 a.u.
CTTTGCACAATGCATTACGTGGGACCACATCCCTTTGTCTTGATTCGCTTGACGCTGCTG,7160 a.u.
GCGCAACAAATACCTGATGTGACGCCTACCCTTTGGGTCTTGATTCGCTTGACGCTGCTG,3240 a.u.
GAATCGCAAGATACCCACGATGAGACTGTTCAGGTTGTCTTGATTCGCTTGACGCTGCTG,8070 a.u.
